Measured values gathered from unrelated publications.
Parts stem from different laboratories: compare values within a part only. “And” joins repeats or separate records; there may be more than shown.
Sequence of UniProt Q12851 (whole entry, looked up): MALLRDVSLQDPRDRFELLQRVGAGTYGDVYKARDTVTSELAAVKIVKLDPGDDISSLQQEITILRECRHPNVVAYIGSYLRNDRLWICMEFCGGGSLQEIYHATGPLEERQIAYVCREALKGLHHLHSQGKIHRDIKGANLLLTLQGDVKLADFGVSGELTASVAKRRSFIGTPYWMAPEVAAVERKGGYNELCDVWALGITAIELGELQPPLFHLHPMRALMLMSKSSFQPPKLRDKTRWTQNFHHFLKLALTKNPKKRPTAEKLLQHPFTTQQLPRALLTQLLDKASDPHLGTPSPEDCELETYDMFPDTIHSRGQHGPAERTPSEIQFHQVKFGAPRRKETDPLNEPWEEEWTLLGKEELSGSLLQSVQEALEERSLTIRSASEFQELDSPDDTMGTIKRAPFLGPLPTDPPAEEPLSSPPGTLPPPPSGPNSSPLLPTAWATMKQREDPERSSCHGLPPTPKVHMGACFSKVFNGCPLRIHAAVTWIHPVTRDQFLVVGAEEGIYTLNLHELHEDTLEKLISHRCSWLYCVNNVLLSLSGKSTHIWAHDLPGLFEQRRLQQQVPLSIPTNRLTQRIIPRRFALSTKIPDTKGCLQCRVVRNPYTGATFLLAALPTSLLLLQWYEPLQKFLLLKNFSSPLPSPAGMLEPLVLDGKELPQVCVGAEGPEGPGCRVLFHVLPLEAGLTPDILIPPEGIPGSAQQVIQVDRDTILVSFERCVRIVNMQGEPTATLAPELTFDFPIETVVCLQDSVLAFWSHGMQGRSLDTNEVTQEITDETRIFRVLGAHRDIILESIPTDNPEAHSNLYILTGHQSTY
Sequence of UniProt P50750 (whole entry, looked up): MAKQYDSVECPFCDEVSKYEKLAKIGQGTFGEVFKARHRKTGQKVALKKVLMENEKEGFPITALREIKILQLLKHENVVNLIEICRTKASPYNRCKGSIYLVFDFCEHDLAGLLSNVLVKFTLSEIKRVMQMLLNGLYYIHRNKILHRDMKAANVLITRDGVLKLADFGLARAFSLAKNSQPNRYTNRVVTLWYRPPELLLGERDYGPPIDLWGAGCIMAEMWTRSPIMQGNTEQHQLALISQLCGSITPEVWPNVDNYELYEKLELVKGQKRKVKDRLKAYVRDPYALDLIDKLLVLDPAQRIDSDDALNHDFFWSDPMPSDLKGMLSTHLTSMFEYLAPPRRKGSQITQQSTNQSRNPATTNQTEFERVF
Sequence of UniProt P23458 (whole entry, looked up): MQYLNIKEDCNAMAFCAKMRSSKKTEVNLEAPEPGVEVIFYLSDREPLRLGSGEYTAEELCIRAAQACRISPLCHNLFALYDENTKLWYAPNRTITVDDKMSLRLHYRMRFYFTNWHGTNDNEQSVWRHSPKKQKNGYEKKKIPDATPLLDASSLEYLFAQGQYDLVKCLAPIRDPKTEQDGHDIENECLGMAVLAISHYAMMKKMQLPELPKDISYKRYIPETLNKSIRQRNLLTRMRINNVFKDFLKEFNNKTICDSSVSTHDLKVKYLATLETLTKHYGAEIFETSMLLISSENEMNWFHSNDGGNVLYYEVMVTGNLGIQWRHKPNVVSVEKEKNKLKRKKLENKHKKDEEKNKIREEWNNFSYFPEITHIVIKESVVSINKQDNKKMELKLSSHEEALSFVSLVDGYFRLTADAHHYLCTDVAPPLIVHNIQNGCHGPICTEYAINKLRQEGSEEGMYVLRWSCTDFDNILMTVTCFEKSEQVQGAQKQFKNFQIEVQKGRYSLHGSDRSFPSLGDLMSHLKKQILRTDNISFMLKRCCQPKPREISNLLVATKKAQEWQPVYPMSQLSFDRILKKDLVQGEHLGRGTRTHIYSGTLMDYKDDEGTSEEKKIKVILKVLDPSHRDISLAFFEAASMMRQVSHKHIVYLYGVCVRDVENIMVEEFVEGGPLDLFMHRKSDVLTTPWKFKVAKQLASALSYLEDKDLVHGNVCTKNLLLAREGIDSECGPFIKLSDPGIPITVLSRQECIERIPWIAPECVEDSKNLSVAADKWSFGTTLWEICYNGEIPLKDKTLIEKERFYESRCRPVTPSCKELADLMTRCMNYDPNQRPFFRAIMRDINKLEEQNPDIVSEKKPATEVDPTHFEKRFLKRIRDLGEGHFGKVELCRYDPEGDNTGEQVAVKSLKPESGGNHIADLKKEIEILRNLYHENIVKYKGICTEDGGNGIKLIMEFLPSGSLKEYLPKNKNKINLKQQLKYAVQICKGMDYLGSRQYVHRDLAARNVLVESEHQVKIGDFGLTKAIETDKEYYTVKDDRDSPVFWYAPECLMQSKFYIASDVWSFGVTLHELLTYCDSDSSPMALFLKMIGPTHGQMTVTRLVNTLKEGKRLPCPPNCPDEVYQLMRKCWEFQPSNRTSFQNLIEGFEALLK
Sequence of UniProt P52564 (whole entry, looked up): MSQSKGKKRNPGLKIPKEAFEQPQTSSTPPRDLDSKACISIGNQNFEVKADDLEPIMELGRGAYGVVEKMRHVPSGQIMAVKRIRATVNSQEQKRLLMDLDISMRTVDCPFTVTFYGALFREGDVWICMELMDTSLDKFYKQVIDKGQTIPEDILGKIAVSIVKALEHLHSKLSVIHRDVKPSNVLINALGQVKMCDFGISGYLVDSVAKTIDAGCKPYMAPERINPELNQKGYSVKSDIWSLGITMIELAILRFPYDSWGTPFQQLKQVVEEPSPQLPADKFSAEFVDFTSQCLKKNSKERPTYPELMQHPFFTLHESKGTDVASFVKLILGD
Sequence of UniProt Q15746 (whole entry, looked up): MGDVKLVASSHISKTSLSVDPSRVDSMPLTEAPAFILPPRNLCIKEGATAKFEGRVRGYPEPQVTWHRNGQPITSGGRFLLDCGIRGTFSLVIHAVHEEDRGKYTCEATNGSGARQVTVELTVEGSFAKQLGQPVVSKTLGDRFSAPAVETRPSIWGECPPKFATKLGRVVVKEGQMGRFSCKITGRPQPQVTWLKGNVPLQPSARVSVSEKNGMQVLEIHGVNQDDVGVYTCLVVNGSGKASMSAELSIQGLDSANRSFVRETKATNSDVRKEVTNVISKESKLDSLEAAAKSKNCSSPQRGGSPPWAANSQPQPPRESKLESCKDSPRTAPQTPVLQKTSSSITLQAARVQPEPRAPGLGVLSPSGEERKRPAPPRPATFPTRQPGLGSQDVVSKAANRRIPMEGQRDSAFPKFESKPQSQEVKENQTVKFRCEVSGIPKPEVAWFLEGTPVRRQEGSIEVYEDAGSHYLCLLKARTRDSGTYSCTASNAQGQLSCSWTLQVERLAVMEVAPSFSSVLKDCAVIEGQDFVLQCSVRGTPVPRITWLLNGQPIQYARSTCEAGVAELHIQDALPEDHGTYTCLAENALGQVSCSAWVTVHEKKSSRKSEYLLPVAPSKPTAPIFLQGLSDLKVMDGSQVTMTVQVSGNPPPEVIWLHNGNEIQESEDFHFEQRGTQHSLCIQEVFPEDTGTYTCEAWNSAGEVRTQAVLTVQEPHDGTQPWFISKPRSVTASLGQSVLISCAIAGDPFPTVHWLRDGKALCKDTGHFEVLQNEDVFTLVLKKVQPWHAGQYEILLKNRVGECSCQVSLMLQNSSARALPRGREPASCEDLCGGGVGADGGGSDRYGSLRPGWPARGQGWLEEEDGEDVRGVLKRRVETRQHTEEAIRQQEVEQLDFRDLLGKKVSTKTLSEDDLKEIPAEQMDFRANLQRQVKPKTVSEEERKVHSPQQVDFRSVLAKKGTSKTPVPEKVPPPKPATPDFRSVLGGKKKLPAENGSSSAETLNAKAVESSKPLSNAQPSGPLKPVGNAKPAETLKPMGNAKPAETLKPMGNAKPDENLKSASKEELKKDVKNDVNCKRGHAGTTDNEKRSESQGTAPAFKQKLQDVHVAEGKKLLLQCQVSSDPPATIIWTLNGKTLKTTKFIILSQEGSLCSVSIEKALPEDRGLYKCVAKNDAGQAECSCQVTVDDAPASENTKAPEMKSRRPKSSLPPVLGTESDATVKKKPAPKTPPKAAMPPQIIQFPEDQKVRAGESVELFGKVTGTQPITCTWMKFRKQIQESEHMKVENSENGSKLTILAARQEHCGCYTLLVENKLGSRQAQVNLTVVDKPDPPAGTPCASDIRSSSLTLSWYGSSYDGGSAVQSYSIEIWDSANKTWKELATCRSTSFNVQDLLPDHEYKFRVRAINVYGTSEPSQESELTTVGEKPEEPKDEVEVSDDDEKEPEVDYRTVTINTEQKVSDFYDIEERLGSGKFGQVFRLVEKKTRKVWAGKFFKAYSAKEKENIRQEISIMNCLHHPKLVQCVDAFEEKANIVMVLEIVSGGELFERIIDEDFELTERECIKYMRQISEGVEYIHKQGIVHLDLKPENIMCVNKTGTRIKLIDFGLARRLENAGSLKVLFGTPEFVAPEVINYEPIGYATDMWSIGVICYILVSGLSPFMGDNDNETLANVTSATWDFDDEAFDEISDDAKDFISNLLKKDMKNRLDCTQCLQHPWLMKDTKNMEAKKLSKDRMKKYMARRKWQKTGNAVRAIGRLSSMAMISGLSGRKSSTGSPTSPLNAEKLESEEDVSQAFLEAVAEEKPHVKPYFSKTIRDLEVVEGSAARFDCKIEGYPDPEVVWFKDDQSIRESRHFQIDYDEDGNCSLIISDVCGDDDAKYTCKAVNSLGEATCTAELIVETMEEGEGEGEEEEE
Sequence of UniProt Q9Y6M4 (whole entry, looked up): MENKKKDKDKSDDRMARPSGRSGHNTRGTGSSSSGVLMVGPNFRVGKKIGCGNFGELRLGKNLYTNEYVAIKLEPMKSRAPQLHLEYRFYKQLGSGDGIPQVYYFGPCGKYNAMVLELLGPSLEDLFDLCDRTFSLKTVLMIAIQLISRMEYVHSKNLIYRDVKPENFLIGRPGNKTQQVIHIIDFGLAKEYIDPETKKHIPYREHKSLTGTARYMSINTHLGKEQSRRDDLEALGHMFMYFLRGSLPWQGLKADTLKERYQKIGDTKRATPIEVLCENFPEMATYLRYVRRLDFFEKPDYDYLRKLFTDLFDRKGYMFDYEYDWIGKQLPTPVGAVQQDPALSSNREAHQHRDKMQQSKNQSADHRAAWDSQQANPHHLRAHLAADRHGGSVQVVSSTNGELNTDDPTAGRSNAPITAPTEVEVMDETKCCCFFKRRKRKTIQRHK

Study 1
Structure (SMILES): CCCCN(CCCC)C(=O)CN1C[C@@H](c2cc(OC)c3c(c2)OCO3)[C@H](C(=O)O)[C@H]1CC(C)(C)CCC
Observed: cell-free assay
Method: competition with immobilised ligand
Concentration: 1 µM
Endpoint: remaining binding
KIT (Homo sapiens, UniProt P10721, D816H): 78.5%
CAMK2G (Homo sapiens, UniProt Q13555): 94.3%
Tyrosine-protein kinase JAK1, JH2 (JAK1, Homo sapiens, UniProt P23458): 100%
TTK (Homo sapiens, UniProt P33981): 100%
MYLK (Homo sapiens, UniProt Q15746): 84.4%
FGFR4 (Homo sapiens, UniProt P22455): 95.8%
MAP2K2 (Homo sapiens, UniProt P36507): 98%
CSNK1G3 (Homo sapiens, UniProt Q9Y6M4): 100%
CAMK2D (Homo sapiens, UniProt Q13557): 99.9%
EPHA7 (Homo sapiens, UniProt Q15375): 100%

Study 2
Compound: Cc1cc2c(C(N)=O)c(N)n(-c3c(C)ccc(O)c3C)c2nc1C
Endpoint: inhibition
SRC (Homo sapiens, UniProt P12931); kinase activity, inhibitor, HTRF; 1.111 µM: 99.7%
KLE; cell proliferation; 1.524 nM: 0.45% and -1.56% and -1.67%
HCC1569; automated capillary immunoblot, measured: CDK1 phospho-Thr14; 1000 nM: 95.5%
HuCCT-1; cell proliferation; 1.52 nM: -2.31% and 1.39% and 0.37%
HuCCT-1; cell proliferation; 13.72 nM: 0.24% and 1.77% and 2.98%
HCC1569; automated capillary immunoblot, measured: CDK1 phospho-Thr14; 0.05 nM: 5.56%
RKO; cell proliferation; 13.72 nM: 2.12% and -1.51%

Study 3
Cell line: mouse MPNST tumor cells
Method: high-content nuclear imaging
Measured: cell number
Concentration: 10 µM
Time: 12 h
Setting: mean of 2 replicates
Baseline: plate mean
Reading: higher = more cells
Endpoint: nuclei count
CCc1nc2c(c3cc(OC)c(OC)cc13)C(=O)NC2=O: 1.14 z-score
Nc1nc(N)c2nc(-c3ccccc3)c(N)nc2n1: 0.486 z-score and -0.363 z-score
C=CC[C@@H]1/C=C(\C)C[C@H](C)C[C@H](OC)[C@H]2O[C@@](O)(C(=O)C(=O)N3CCCC[C@H]3C(=O)O[C@H](/C(C)=C/[C@@H]3CC[C@@H](O)[C@H](OC)C3)[C@H](C)[C@@H](O)CC1=O)[C@H](C)C[C@@H]2OC: 4.44 z-score
Cc1nnc(NS(=O)(=O)c2ccc(N)cc2)s1: 0.772 z-score
CC(CNC1CCCCC1)OC(=O)c1ccccc1 (stereo not shown): 0.38 z-score
OC(CNCC(O)C1CCc2cc(F)ccc2O1)C1CCc2cc(F)ccc2O1 (stereo not shown): -4.8 z-score and -4.9 z-score
Nc1nc(OCC2CCCCC2)c2[nH]cnc2n1: 1.85 z-score
CCCCCCCC/C=C\CCCCCCCC(=O)NCc1ccc(O)c(OC)c1: 2.17 z-score
Nc1nc(CC(=O)Nc2ccc(CCNC[C@H](O)c3ccccc3)cc2)cs1: 1.7 z-score
CN1C(=O)OC(C)(C)C1=O: 1.04 z-score and -0.729 z-score
Cc1nc2cnc3ccc(C#Cc4cccnc4)cc3c2n1-c1ccc(C(C)(C)C#N)cc1: -1.56 z-score
Cn1cnc2ncn(Cc3nc(CCc4ccc(Cl)cc4)no3)c(=O)c21: 1.79 z-score
CC(C)(C)c1ccc(C(O)CCCN2CCC(C(O)(c3ccccc3)c3ccccc3)CC2)cc1 (stereo not shown): -7.38 z-score
CC(C)c1ccccc1S(=O)(=O)c1cc(N)c2ncccc2c1[N+](=O)[O-]: -2.36 z-score

Study 4
Structure (SMILES): Oc1cccc(-c2nc(N3CCOCC3)c3oc4ncccc4c3n2)c1
Observed: enzyme activity
Action: inhibitor
Concentration: 0.5 µM
Baseline: control
Endpoint: remaining activity
MAP2K6 (Homo sapiens, UniProt P52564): 86.6%
Cyclin-dependent kinase 9, with cyclin T1 (CDK9, Homo sapiens, UniProt P50750): 105%
LRRK2 (Homo sapiens, UniProt Q5S007): 101%
EPHA5 (Homo sapiens, UniProt P54756): 102%
MAP4K2 (Homo sapiens, UniProt Q12851): 93%
PLK2 (Homo sapiens, UniProt Q9NYY3): 94.7%
CSNK2A1 (Homo sapiens, UniProt P68400): 94.7%
PRKCI (Homo sapiens, UniProt P41743): 94.9%
AKT3 (Homo sapiens, UniProt Q9Y243): 99%

Excerpt of the above (study 1):
CSNK1G3 (Homo sapiens, UniProt Q9Y6M4): 100%
TTK (Homo sapiens, UniProt P33981): 100%
EPHA7 (Homo sapiens, UniProt Q15375): 100%
Tyrosine-protein kinase JAK1, JH2 (JAK1, Homo sapiens, UniProt P23458): 100%
FGFR4 (Homo sapiens, UniProt P22455): 95.8%
KIT (Homo sapiens, UniProt P10721, D816H): 78.5%
